# Assay results gathered from unrelated publications.
# Parts stem from different laboratories: compare values within a part only.

# Sample 1 — technique: protein binding microarray; molecule type: double-stranded DNA, one strand shown; medium: in vitro; tested at: not given; reference: not given; reading: higher = stronger binding
# Target: Histone acetyltransferase KAT6A, winged helix 2, GST fusion (KAT6A, Homo sapiens, UniProt Q92794, residues 85-181)
# Setting: 8-mer, flanks averaged, mean of 2 arrays, mostly near background
# Residues (chain): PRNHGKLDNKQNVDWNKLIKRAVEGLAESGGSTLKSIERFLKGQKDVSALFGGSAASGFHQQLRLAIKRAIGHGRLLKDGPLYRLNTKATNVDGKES
Strand,E-score
AACTTATC,-0.0529
GACAGTGC,-0.0474
ACGATGTC,-0.218
CCTGGTCA,-0.0667
CACCGGTA,-0.0302
AGGTCGGC,0.246
ACACTACG,-0.106
GGGATAGA,-0.0941
GACCACGA,0.0121
ATTGCTCC,0.0351
GAACTTGC,0.0861
ATTTCGCA,0.156
ACACTGGC,0.00521
ACGGAAGT,-0.212
ACGTAACC,-0.179
AGTACTCG,-0.0447
ATATAGCC,0.0271
ATTGCCGA,0.036
GGCCCTAC,-0.088
CACAATCA,-0.0105
CACCTCAC,0.0338

# Sample 2 — technique: aptamer microarray, sandwich; molecule type: DNA with 2'F-ANA; medium: in vitro; tested at: 200 nM; together with: Cy3 exosite-II aptamer, 400 nM; reading: higher = stronger binding; strand: GGTTGGTGTGGTTGG
# Target: Prothrombin, mature alpha-thrombin (F2, Homo sapiens, UniProt P00734)
# Setting: whole 15-mer aptamer, many near background
Modification,mean fluorescence intensity
2'F-ANA at 1 3 5 7 8 9 10 13 14 15,46 a.u.
2'F-ANA at 1 2 6 7 11 12,257 a.u.
2'F-ANA at 1 2 3 4 5 6 8 9 11 12,188 a.u.
2'F-ANA at 3 5 7 8 11 13,118 a.u.
2'F-ANA at 2 3 4 5 6 8 12 13 15,120 a.u.
2'F-ANA at 3 4 8 11 12 13 14,366 a.u.
2'F-ANA at 2 3 8 14,465 a.u.
2'F-ANA at 2 4 5 9 10 11 14,45 a.u.
2'F-ANA at 1 2 4 5 8 10 11 12 13 14 15,49 a.u.
2'F-ANA at 2 4 6 7 8 9 10 13 15,65.6 a.u.
2'F-ANA at 1 2 3 5 6 9 10 12 14,63.9 a.u.
2'F-ANA at 1 3 7 13 14 15,87.1 a.u.
2'F-ANA at 3 5 7 8 9 10 11,57.7 a.u.
2'F-ANA at 2 8 11 12 15,660 a.u.
2'F-ANA at 2 4 7 8 13 15,261 a.u.
2'F-ANA at 1 2 3 6 7 9 10 11 14,53.2 a.u.
2'F-ANA at 7 8 9 11 12 13,635 a.u.
2'F-ANA at 1 2 4 6 7 8 14 15,86.7 a.u.
2'F-ANA at 2 3 4 5 6 7 9 10 13 14 15,50.6 a.u.
2'F-ANA at 5 6 8 10 14 15,53 a.u.
2'F-ANA at 1 2 9 11 12 15,265 a.u.
2'F-ANA at 4 5 7 10 13 15,87.3 a.u.
2'F-ANA at 1 5 6 12 13 14,46.2 a.u.

# Sample 3 — technique: RNA Bind-n-Seq; molecule type: RNA; medium: in vitro; tested at: not given; reference: input RNA pool; reading: higher = stronger binding
# Target: RING finger protein unkempt homolog, zinc fingers 1-6, GST-SBP tag (UNK, Homo sapiens, UniProt Q9C0B0, residues 30-357)
# Setting: RNA with constant flanks, human and mouse sites, ends assumed
# Construct (chain): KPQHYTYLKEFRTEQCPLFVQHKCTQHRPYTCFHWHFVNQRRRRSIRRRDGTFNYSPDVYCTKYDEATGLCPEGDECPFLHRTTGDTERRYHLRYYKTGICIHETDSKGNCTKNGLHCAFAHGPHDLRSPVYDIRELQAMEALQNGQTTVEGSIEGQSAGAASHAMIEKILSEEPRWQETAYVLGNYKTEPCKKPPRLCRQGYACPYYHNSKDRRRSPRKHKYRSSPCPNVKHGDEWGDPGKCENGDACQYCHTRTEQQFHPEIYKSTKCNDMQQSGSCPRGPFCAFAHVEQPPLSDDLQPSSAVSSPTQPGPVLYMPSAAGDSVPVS
Strand,bound/input enrichment
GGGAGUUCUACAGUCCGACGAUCUCCUUUCAGCGGCGCGCGGCUGCAAGAUGGCGGUGCAGAUUUCCAAGAAGAGGAAGUUUGUAGCUGAUGGCAUCUUCAAAGCUGAGCUGAAUGAAUUUCUCACUCGGGAGCUGGCUGAAGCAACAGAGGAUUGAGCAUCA,0.0901 ratio
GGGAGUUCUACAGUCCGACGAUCAUCGUGGAGUAUCAGAAUAAGGGCCGAGCGAACGAGUGCGUCCAGUAUCAGCAUGUGUUACAUAGAAAUCUCAUUUAUUUAGCUACCAUCGCAGACGCCAACACAAGCAGUCUCACAAAGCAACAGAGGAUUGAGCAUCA,1.06 ratio
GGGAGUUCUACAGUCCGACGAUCUAUAAUGCCUUGGAAACAAACAUUAUUCCAUCAUUUGUGUUGAUGGAUAUCCAGGCUUCUACAGUGGUCACCUAUGUGUAUCAGCUAAUUGGAGAUGAUGUGAAAGUAGAACGAAUCGAACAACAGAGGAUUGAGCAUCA,0.114 ratio
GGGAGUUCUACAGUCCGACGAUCCUCUUUUUUUUCCACGGGGCUGUUUUUUUAAUUUGGCUGCAAUUGCAUGAAAUCCCAAUGGUGUAGACCAGUGGCGAUGGAUCUAGGAGUUUACCAACUGAGACAUUUUUCCAUUUCUUUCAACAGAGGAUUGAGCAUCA,0.934 ratio
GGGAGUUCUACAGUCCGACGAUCAUAGGCUCCUGUAUAAAUGCCAUUGAUUCAGAGCCCAAAGAUGUCAUUGCUAAUUCAAAUGCUGUGUUAAUGGACCUGGACAGUGGUGAUGUUAAGAGAAGAGUACAUUUAUUUGAAACCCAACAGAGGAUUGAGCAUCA,1.27 ratio
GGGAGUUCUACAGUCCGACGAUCAAAUUAGUGGGCAAAGAAACAUUCUAUGUUGGAGCUGCAAAGACAAAAGCGACCAUAAAUAUAGACGCUAUCAGUGGUUUUGCUUAUGAAUAUACUCUGGAAAUUAAUGGGAAAAGUCUCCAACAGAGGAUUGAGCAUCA,0.769 ratio
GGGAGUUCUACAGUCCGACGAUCAAGAGGUUAUGUCACAUCAGAGGAAAAUUGAGAAAAAAGGUUUGGAUAAAUACCUCGGACAUUAUUUUGGUUGGUCUCCGAGACUACCAGGAUAACAAAGCUGAUGUAAUUUUAAAAUACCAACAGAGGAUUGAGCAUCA,0.167 ratio
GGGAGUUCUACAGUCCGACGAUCGGAUAUUUGAUUCCUACUGCUUUGGAAAGCAUUUUGGAGCAAUACCAAAAGGAAACUAACUAACCAAGUGUGAUAUGUUGCUCUGAAAAUCUUUGCGAAAUGAGGGCCUCUUGCUGAAUUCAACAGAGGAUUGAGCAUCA,0.126 ratio

# Sample 4 — technique: RNA Bind-n-Seq; molecule type: RNA; medium: in vitro; tested at: 200 nM; setting: whole 134-nt RNA, ends assumed; together with: 150 mM KCl; reference: input library; reading: higher = stronger binding
# Target: Fragile X messenger ribonucleoprotein 1, C-terminal low-complexity region (Fmr1, Mus musculus, UniProt P35922)
Strand,log2 enrichment
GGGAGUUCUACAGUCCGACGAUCCCUGUGCUACACAUCGUAUGUACCGAAUCAAAUUUUUAAACCCCCCCAAAUUUUUUUAAAAAAGUAUUAUGUUACGCCGUUCGGAUCUGCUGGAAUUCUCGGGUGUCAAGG,0.277
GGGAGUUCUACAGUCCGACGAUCAAGUCCUGUGCUACACAUCGUAUGUACCGAAUCGGUUUUGGGGUUUUGGUUUUGGGGAAAGUAUUAUGUUACGCCGUUCGGAUCUGCACUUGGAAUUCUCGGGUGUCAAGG,-0.229
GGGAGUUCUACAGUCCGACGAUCCUGUGCUACACAUCGUAUGUACCGAAUCGGGGUUUUUGGGGUUUUUGGGGUUUUUUUGGGGAAAGUAUUAUGUUACGCCGUUCGGAUCUGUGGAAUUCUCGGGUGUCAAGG,0.0992
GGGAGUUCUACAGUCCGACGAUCCAAGUCCUGUGCUACACAUCGUAUGUACCGAAUCGGGUUUGGGAAAGGGAAAGGGAAAGUAUUAUGUUACGCCGUUCGGAUCUGCACUUCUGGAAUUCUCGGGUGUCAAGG,0.689
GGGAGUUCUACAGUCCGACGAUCCAAGUCCUGUGCUACACAUCGUAUGUACCGAAUCGGGCCCCGGCCCCGGGCCCCGGAAAGUAUUAUGUUACGCCGUUCGGAUCUGCACUUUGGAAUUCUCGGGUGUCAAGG,-0.59
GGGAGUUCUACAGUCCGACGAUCUCAAGUCCUGUGCUACACAUCGUAUGUACCGAAUCGGGUUUGGGUUUGGGAGGGAAAGUAUUAUGUUACGCCGUUCGGAUCUGCACUUCCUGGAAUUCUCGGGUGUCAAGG,1.25
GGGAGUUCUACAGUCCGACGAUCUCAAGUCCUGUGCUACACAUCGUAUGUACCGAAUCGGGAGGGUGGGUUUUUGGGAAAGUAUUAUGUUACGCCGUUCGGAUCUGCACUUCCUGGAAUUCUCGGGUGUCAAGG,1.15
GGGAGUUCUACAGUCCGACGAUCCAAGUCCUGUGCUACACAUCGUAUGUACCGAAUCGGGGUGGGGAAAGGGGAGGGGAAAGUAUUAUGUUACGCCGUUCGGAUCUGCACUUCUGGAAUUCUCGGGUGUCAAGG,1.03
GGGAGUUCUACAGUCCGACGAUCCACAGACAACACGCACCCACACAGACACAGAGGGAAGAGGUUGGGAUGGGGACAGGGUGCACAGCAGGGCGGGGUAGGACCCCAGCCCCUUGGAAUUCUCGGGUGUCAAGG,1.2

# For quick reference, copied from above (sample 2):
Modification,mean fluorescence intensity
2'F-ANA at 1 3 7 13 14 15,87.1 a.u.
2'F-ANA at 2 4 7 8 13 15,261 a.u.
2'F-ANA at 1 2 6 7 11 12,257 a.u.
2'F-ANA at 3 5 7 8 11 13,118 a.u.
2'F-ANA at 4 5 7 10 13 15,87.3 a.u.
2'F-ANA at 2 3 8 14,465 a.u.
